Published values of several laboratories.
Numbered parts are unrelated; each lists some results of a single study.

Set 1 — method: aptamer microarray, sandwich; molecule type: DNA with 2'F-ANA; matrix: in vitro; tested at: 200 nM; together with: Cy3 exosite-II aptamer, 400 nM; reading: higher = stronger binding; endpoint: mean fluorescence intensity; sequence: GGTTGGTGTGGTTGG
Target: Prothrombin, mature alpha-thrombin (F2, Homo sapiens, UniProt P00734)
Setting: whole 15-mer aptamer, many near background
2'F-ANA at 2 3 4 5 6 8: 133 a.u.
2'F-ANA at 1 2 7 8 11 12: 398 a.u.
2'F-ANA at 2 3 4 5 6 10 11 14: 50 a.u.
2'F-ANA at 3 7 10: 602 a.u.
2'F-ANA at 2 3 8 9 12 13: 971 a.u.
2'F-ANA at 1 2 3 4 5 7 8 9 10 11 12 14 15: 54.9 a.u.
2'F-ANA at 3 4 5 6 7 9 15: 91.2 a.u.
2'F-ANA at 2 5 11 13 14 15: 51.9 a.u.
2'F-ANA at 1 3 5 6 10 11 14: 45.4 a.u.
2'F-ANA at 1 2 3 4 5 6 9 10 11 13 15: 51.1 a.u.
2'F-ANA at 2 6 8 9 10 11 12 13 14: 80.6 a.u.
2'F-ANA at 4 6 10 11 12 13 15: 75.3 a.u.
2'F-ANA at 1 2 3 4 6 7 8 12 15: 367 a.u.
2'F-ANA at 2 3 4 7 10 11 14: 184 a.u.
2'F-ANA at 1 2 3 7 9 10 11 15: 62 a.u.
2'F-ANA at 2 6 7 9 10 11 15: 110 a.u.
2'F-ANA at 4 5 7 8 10 12 13 15: 46.9 a.u.
2'F-ANA at 1 3 6 9 11 12 14 15: 95 a.u.
2'F-ANA at 4 5 6 10 12 14 15: 47.5 a.u.
2'F-ANA at 5 6 10 11 12: 48 a.u.
2'F-ANA at 3 7 8 10 15: 655 a.u.
2'F-ANA at 2 5 7 8 10 11 12 14: 49.7 a.u.

Set 2 — method: universal PBM; molecule type: double-stranded DNA, one strand shown; matrix: in vitro; tested at: not given; reading: higher = stronger binding; endpoint: E-score
Target: Sal-like protein 4, full length isoform B (SALL4, Homo sapiens, UniProt Q9UJQ4-2, residues 1-616)
Setting: 8-mer, flanks averaged, mean of replicates
Residues (chain): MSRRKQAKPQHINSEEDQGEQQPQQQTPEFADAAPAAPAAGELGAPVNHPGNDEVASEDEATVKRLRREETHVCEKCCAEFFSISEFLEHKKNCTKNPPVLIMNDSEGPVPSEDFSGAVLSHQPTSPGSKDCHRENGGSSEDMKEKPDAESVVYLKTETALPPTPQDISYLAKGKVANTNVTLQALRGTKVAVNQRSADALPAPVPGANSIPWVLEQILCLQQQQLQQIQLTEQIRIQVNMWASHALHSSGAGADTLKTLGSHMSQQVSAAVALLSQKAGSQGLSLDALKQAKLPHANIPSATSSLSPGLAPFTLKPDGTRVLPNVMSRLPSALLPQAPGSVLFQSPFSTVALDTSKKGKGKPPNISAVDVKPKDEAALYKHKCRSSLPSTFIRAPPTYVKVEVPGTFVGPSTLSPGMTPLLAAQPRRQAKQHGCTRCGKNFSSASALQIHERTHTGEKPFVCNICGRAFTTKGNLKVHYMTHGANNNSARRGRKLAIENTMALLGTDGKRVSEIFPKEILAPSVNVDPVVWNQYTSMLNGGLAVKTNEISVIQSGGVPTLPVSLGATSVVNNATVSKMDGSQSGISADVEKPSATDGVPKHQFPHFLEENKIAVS
GAGTGCGC: -0.338
CGCACCAA: -0.138
ACCTATCG: 0.0242
GCTAGGAA: -0.0927
CTCTAGAA: -0.037
CCTGCAGA: -0.125
CAGTCGTC: -0.165
GTATTGTA: 0.235
ATGCCTTC: -0.116
CAAGTTAG: -0.0257
CGTATAGA: 0.205
ACTCACGG: -0.115
ACCACATC: -0.168
CGACTCCA: -0.265
CAGATGCA: -0.103
CTGTGTCA: -0.0553
AATAGTTC: 0.246
CGTGGGAG: -0.218
AACGCTTC: 0.0664
AGCTCAGA: -0.172
CCGACGTC: -0.26
CGTTGAAG: -0.0473
AGTCATTA: 0.157
GTCAGGCA: -0.0878
ATTTACTA: 0.223

Set 3 — method: protein binding microarray; molecule type: double-stranded DNA, one strand shown; matrix: in vitro; tested at: not given; baseline: not given; reading: higher = stronger binding; endpoint: E-score
Target: Histone acetyltransferase KAT6A, winged helix 2, GST fusion (KAT6A, Homo sapiens, UniProt Q92794, residues 85-181)
Setting: 8-mer, flanks averaged, mean of 2 arrays, mostly near background
Target sequence (chain): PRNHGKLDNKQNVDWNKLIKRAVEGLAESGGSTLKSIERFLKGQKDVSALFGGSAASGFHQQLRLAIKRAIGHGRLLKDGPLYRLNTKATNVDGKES
CAAGACTC: -0.0229
AATCTGTC: -0.0368
AACCAAGT: -0.11
CGGTACCG: 0.245
ACTGGTGG: -0.142
AATACGTC: -0.165
AGTCACCG: -0.0995
GATACTGA: -0.044
CAGCTTGC: 0.092
GGGTGGAA: -0.126
CCGTGGCA: 0.125
AGTTCTAC: -0.183
CCGCTTTA: 0.121
ACTAAGTG: 0.0234
CGTGTGCA: -0.108
ACGCAGGC: 0.156
AGGAAGCG: 0.0178
AGAGAGGG: -0.0254
AATAAGCC: -0.0275
AAGCTCGG: 0.123
AATCATTA: -0.0135
CCTTTTGA: -0.0247
ACATACGA: -0.055
ATGAGTGG: -0.0386
CCGCAGTA: 0.0871

Set 4 — method: RNA Bind-n-Seq; molecule type: RNA; matrix: in vitro; tested at: 365 nM; baseline: no-protein control; reading: higher = stronger binding; endpoint: RBNS enrichment (R)
Target: RNA binding protein fox-1 homolog 2, RRM domain, GST-SBP tag (RBFOX2, Homo sapiens, UniProt O43251-10, residues 100-194)
Setting: natural RNA segment, single round, ends assumed
All sequences stand within: GGGAGUUCUACAGUCCGACGAUC … UGGAAUUCUCGGGUGCCAA
CAGAAGUGACUUUGAGACUGUUCCUGCUGACCUUUUGAGAUAGUCACUUAAGGAAGGAUGGCUCUCUCUCAUCUGUCUCUUGUUCCUUAUUGUUGCAGAGCUAGCUCCAC: 0.477
AGAACGUGAUUUCCAGUGAUCUCUGGAAGCGCUAAAGCUAAAAUUUCUGUUCUUGAAACACUUCAGCUUUGCAACUAAAAUAUUACAGAUUAAUAAUAAAUUAAACCAAC: 0.564
GUGAUUCAAAACAAAGGAGAUACUGCAGUGGGAAUUGUGACCUGAGUGACUCUCUGUCAGAACAAAUGCUGUGCAGGUGAUAAAGCUAUGUAUUGGAAGUCAGAUUUCUA: 0.626
UCUAUCACCACGAGAGAACUUCCCAUCCAGGGCAGAACUCUGAUCUUAAACACUUCCCACUGCCAGAGUGAGAGUGGGAGUCAUGGCCUCCUGAAAACUUGGACUCUGCA: 5.32
AGAAACUGAAUCCAUGUAAGAAAAAAUAAUUGUUGAAGAAAGAAGUUGAUAGAAUUCAAAAAGGCCAUCUUUUUGCUUUCACAUCAAUAAAAUUUACCAAGUAAUAGAUC: 0.601
CAAGAUGAAUGAACUAAUGGAGAAAUAGAAAGUCUUCAGUGAUGGCCUACGCCAAAGCACAGGAUGGGGCGGGCAGGAAGCCCUCUCCCAAGAUCGAGUUGGCCGAGGAU: 0.492
UUUGUUUGUUUGUUUUCCCCCCUCUCCUAGUUUUUACCUAGGUUUUCAGGACGCCUCGUGUUUUUGUUUUCUGCUGGAUCUGUGUGGUGGUGUUAGCGUCGUUUGCCUAG: 4.32
CAGACCGUGGUGGGCCUUCAAGCUAAGGAGCUUCCUAGGUGAAAGGGGAGAUGUGAGCCUUCUCUGGAGGGAAGUUUCAUGAUUGCAUCUAUAAUGAAUAUAUUGCCUGU: 2.8

A few entries again (set 1):
2'F-ANA at 2 3 8 9 12 13: 971 a.u.
2'F-ANA at 4 5 6 10 12 14 15: 47.5 a.u.
2'F-ANA at 2 3 4 7 10 11 14: 184 a.u.
2'F-ANA at 2 3 4 5 6 8: 133 a.u.
2'F-ANA at 3 7 10: 602 a.u.
2'F-ANA at 1 3 5 6 10 11 14: 45.4 a.u.
2'F-ANA at 2 6 7 9 10 11 15: 110 a.u.
2'F-ANA at 1 2 7 8 11 12: 398 a.u.
2'F-ANA at 1 3 6 9 11 12 14 15: 95 a.u.
